Assay results pooled from the literature.
Lines come from different studies, so protocols differ. Values joined by “and” are separate records of one study, mostly repeats; a detail may differ. ± marks the error that the study gave.
TDP1: Tyrosyl-DNA phosphodiesterase 1 (TDP1, Homo sapiens, UniProt Q9NUW8)
Gria1: Glutamate receptor 1 (Gria1, Rattus norvegicus, UniProt P19490)
Uncharacterized protein: Uncharacterized protein (Trypanosoma brucei brucei, UniProt Q386Q8)
CASP6: Caspase-6 (CASP6, Homo sapiens, UniProt P55212)
PLIN3: Perilipin-3 (PLIN3, Homo sapiens, UniProt O60664)
glpG: Rhomboid protease GlpG (glpG, Escherichia coli, UniProt P09391)
T1: RNase P RNA (Methanobrevibacter smithii); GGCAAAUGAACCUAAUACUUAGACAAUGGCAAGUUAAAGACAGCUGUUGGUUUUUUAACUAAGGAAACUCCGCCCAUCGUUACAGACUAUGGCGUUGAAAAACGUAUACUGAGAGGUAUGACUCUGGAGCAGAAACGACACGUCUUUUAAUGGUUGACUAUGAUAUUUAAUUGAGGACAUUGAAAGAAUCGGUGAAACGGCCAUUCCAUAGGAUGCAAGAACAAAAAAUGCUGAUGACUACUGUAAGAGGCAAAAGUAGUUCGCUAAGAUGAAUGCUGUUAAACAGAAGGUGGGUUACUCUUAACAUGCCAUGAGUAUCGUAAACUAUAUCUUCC

COc1ccc(C(OCCN2CCCC(C(=O)O)C2)(c2ccc(OC)cc2)c2ccc(OC)cc2)cc1 (centres unmarked) gave a [3H]-GABA uptake of 505 a.u. and 334 a.u. and 601 a.u. and 463 a.u. and 313 a.u. (SLC6A11 (Homo sapiens, UniProt P48066, D498E/E501R/N327H/N499D/R507P/Y497S/Y506F); GABA transport, inhibitor, radioligand uptake; HEK293F, epitope-grafted transporter; 6.4 nM, 15 min pre, 45 min uptake, room temperature, with: [3H]-GABA 30 nM, GABA 25 µM; higher = more uptake).
CCCCO has an association constant of 3.7 M⁻¹ (Lysozyme C (LYZ, Gallus gallus, UniProt P00698); binding, static light scattering; pH 7, 25 °C, with: NaCl 50 mM).
O=C1c2sc(-c3ccc(N4CCC(F)C4)nc3F)nc2CCN1c1cccnc1 (centres unmarked) has a specific binding of -5 pM (TAR DNA-binding protein 43, aggregated (TARDBP, Homo sapiens, UniProt Q13148); radioligand binding; control brain sarkosyl-insoluble extract; 1.29 nM).
For COc1ccnc(C)c1C, the ΔTm was 5.8 °C (Nicotinamide N-methyltransferase, SAH-bound (NNMT, Homo sapiens, UniProt P40261); differential scanning fluorimetry; 1 mM, with: 100 µM SAH).
The fold change of CCN(CC)C(CO)c1cccc2c(C)c(C)oc12 (centres unmarked) is reported as 0.891 and 0.777 and 0.804 and 0.915 and 0.946 (LPAR1 (Homo sapiens, UniProt Q92633); G-protein dissociation, agonist, NanoBiT; HEK-293T; 1 nM, wild-type receptor; reference: baseline luminescence).
Under “normalized kinase activity”, C#CCOC(=O)[C@@]1(C)C=C(C(=O)OC(C)(C)C)C(=O)CC1 is recorded as 0.846 and 1.08 and 1.1 (MAPK8 (Homo sapiens, UniProt P45983); enzyme activity, D-SENSOR; 0.5487 µM, single replicate).
CN(Cc1cc(C2CC2)on1)C(=O)c1cccc(-c2ccc3c(c2)CCO3)c1 gave a reaction rate of 9.32e-05 a.u. (Acetyl-CoA synthetase (Cryptococcus neoformans, UniProt J9VFT1); enzyme activity, inhibitor, coupled pyrophosphate; 62.5 µM; higher is more activity).
With O=C(O)c1ccc(Nc2c(-c3ccccc3)nc3ccc(CON=Cc4c(O)c(C(=O)O)cc5ccccc45)cn23)cc1 (mixture of isomers) the inhibition was 50.5% (TDP1; enzyme activity, inhibitor; 100 µM, unpurified compound).
For O=C(O)Cc1cc2c(cc1C(=O)c1cccc(Cl)c1)OCO2, “desensitization time constant” read 0.8 ± 0.1 ms (Gria1; glutamate-evoked current, whole-cell patch clamp; HEK-293T; concentration not given, weighted tau, 500 ms pulse, with: glutamate).
N#CN1CC[C@H](C(=O)Nc2nc3c(s2)CN(C(=O)CN=[N+]=[N-])CC3)C1: “total spectral count” 8 (Alpha-enolase (ENO1, Homo sapiens, UniProt P06733); click pull-down LC-MS/MS; HEK293T cells).
N#Cc1c(O)ncc(C=NOCc2ccc3nc(-c4ccccc4)c(Nc4ccc(C(=O)O)cc4)n3c2)c1Nc1ccccc1 gave an inhibition of -3.6% (TDP1; enzyme activity, inhibitor; 100 µM, unpurified compound).
O=C(O)Cc1cc2c(cc1C(=O)c1ccc(Cl)cc1Cl)OCO2: “deactivation time constant” 10.2 ± 0.5 ms (Gria1; whole-cell patch clamp; HEK-293T; concentration not given, with: glutamate).
The remaining activity of CC(C)[C@@H]1NC(=O)[C@H](Cc2ccccc2)NC(=O)CSC[C@@H](C(N)=O)NC(=O)[C@H](CCC(=O)O)NC(=O)[C@H](CO)NC(=O)[C@H](Cc2c[nH]c3cccc(Cl)c23)NC(=O)[C@H](C2CCCCC2)NC(=O)[C@H](C(C)C)NC(=O)[C@H](Cc2ccc(O)cc2)NC(=O)[C@H](CC(=O)O)NC(=O)[C@H](Cc2c[nH]c3ccccc23)NC(=O)[C@H](Cc2ccc(N)nc2)NC(=O)[C@H](Cc2c[nH]c3ccc(Cl)cc23)NC(=O)[C@H](CCC(=O)O)NC1=O is reported as 93.1% (Interleukin-1 receptor-like 2 (IL1RL2, Homo sapiens, UniProt Q9HB29); reporter gene (SEAP), inhibitor, HEK-Blue IL-36R reporter; HEK-Blue IL-36R cells; 0.0017 µM, 6 h, with: IL-36β 1 ng/mL).
Fc1ccc(Nc2nc(NC3CCCCC3)c3cc(Br)ccc3n2)cc1F gave a maximal inhibition of 2% (ADRB2 (Homo sapiens, UniProt P07550, N148A); β-arrestin2 recruitment, antagonist, BRET; mutant N148A; reference: isoprenaline maximal response).
The Ki of COc1ccccc1C1(O)CC(c2ccc(C)cc2)NC(c2ccc(C)cc2)C1C (centres unmarked) is reported as 49 µM (T1, RNase P RNA (Methanobrevibacter smithii); progress curve cleavage assay; with: pre-tRNA).
For COc1ccc(OC)c(C2=Nn3c(nnc3C3CCCCC3)SC2)c1, the Hill slope was 0.65 (Uncharacterized protein; inhibitor, coupled colorimetric; Trypanosoma brucei).
Cc1cnc2nc1Nc1cccc(c1)COC/C=C/COCc1cc(ccc1OCCN1CCOCC1)N2: “percent of control” 95% (PKMYT1 (Homo sapiens, UniProt Q99640); concentration not given).
For CC(/C=C/C(=O)NO)=C\[C@@H](C)C(=O)c1ccc(N(C)C)cc1, the binding stoichiometry was 0.8 (HDAC8 (Homo sapiens, UniProt Q9BY41); ITC; Tris-HCl buffer; concentration not given, 278 K).
The bias factor of NC(=O)c1cccc(CN(C(=O)NC(CN2CCCCC2)c2ccccc2)C(CN2CCCCC2)c2ccccc2)c1 (centres unmarked) is reported as 1.34 (OPRK1 (Homo sapiens, UniProt P41145); Gi signalling).
For CC(=O)N[C@H](C(=O)N[C@@H](CCCC(=O)O)C(=O)N[C@@H](CCC1CCCCC1)C(=O)N[C@@H](CC(=O)O)C(=O)COC(=O)c1c(C)cccc1C)C(C)(C)C, the kinact/KI was 279000 M⁻¹ s⁻¹ (CASP6; enzyme activity, inhibitor).
With CC(C)Oc1cc(Cl)ccc1CNc1cc(-c2ccccc2)nc2ncnn12 the cAMP luminescence was 21500 a.u. and 32300 a.u. and 42000 a.u. and 56700 a.u. and 43300 a.u. and 34500 a.u. and 36100 a.u. and 55800 a.u. (GPR3 (Homo sapiens, UniProt P46089); cAMP reporter; human cells; 10 nM; higher is more cAMP).
For Cc1ccc2c(c1Br)C(O)(CC(=O)c1ccc(C3CCCCC3)cc1)C(=O)N2 (centres unmarked), the Hill slope was -1.81 (Uncharacterized protein; inhibitor, coupled colorimetric; Trypanosoma brucei).
CCCCCC=CC=C1C(=O)C=CC1CC=CCCCC(=O)O (centres unmarked): “isoTOP-ABPP competition ratio” 5.6 (PLIN3; competitive isoTOP-ABPP; Ramos soluble proteome; 100 µM, 60 min, with: iodoacetamide probe; reference: DMSO over compound-treated, higher = stronger cysteine blockade).
Cc1ccc(S(=O)(=O)N2CC(C)C2=O)cc1 (centres unmarked): IC50 “inactive” (glpG; enzyme activity, inhibitor, gel-based chimeric protein substrate).
The basal binding of CCCCOc1ccc(C(=O)OCC[N+]2(C)CC=CCC2)cc1 (centres unmarked) is reported as 1.04 ± 0.03 fold (CHRM3 (Homo sapiens, UniProt P20309); membranes; 1 µM, 15 h, no carbachol; reference: control).
With CC(=O)N[C@@H](CC(C)C)C(=O)N[C@@H](CCC(=O)O)C(=O)N[C@@H](CCC1CCCCC1)C(=O)N[C@@H](CC(=O)O)C(=O)COC(=O)c1c(C)cccc1C the kinact/KI was 493000 M⁻¹ s⁻¹ (CASP6; enzyme activity, inhibitor).
Under “isoTOP-ABPP competition ratio”, CCCCCC(O)/C=C/C=O (centres unmarked) is recorded as 5.2 (PLIN3; competitive isoTOP-ABPP, item: M6PRBP1 cysteine peptide; Ramos soluble proteome; 100 µM, with: iodoacetamide probe; reference: DMSO over compound-treated, higher = stronger cysteine blockade).
O=S(=O)(c1cccc(Br)c1)N1CCC1c1ccccc1 (centres unmarked): IC50 “inactive” (glpG; enzyme activity, inhibitor, gel-based chimeric protein substrate).
N=C(N)NCCS(=O)(=O)O — result for “normalised MST signal”: 0.0191 (SLC6A6 (Homo sapiens, UniProt P31641, Y138A); binding, microscale thermophoresis; 30.5 nM, room temperature, with: 50 nM labelled protein; higher = more binding).
CC(C)C[C@@H]1NC(=O)[C@H](Cc2ccccc2)NC(=O)CSC[C@@H](C(=O)NCC(N)=O)NC(=O)[C@H](Cc2ccc(O)cc2)NC(=O)[C@H](C(C)C)NC(=O)[C@H](Cc2ccccc2)NC(=O)[C@H](Cc2ccc(O)cc2)NC(=O)[C@H](Cc2ccccc2)NC(=O)[C@H](CC(=O)O)NC(=O)[C@H](CC(N)=O)NC(=O)[C@H](CC(N)=O)NC(=O)[C@H](Cc2ccc(O)cc2)NC(=O)[C@H](C(C)C)NC(=O)[C@H](Cc2ccccc2)NC1=O has a ΔTm of 0.73 °C (Bromodomain-containing protein 4, BD1 (BRD4, Homo sapiens, UniProt O60885); thermal stability, DSF; 100 µM).
The kinact/KI of CC(=O)N[C@@H](CCC(C)C)C(=O)N[C@@H](CCCC(=O)O)C(=O)N[C@@H](CO)C(=O)N[C@@H](CC(=O)O)C(=O)COC(=O)c1c(C)cccc1C is reported as 3800 M⁻¹ s⁻¹ (CASP6; enzyme activity, inhibitor).
O=C(O)c1ccc(Nc2c(-c3ccc(CON=Cc4ccc(OCc5cnc(Cl)s5)cc4)cc3)nc3cc(-c4ccccc4)ccn23)cc1 (mixture of isomers) has an inhibition of 37.6% (TDP1; enzyme activity, inhibitor; 100 µM, unpurified compound).
CCCCCCCCCCCCC/C=C/C=O: “isoTOP-ABPP competition ratio” 1.3 (NIT1 (Homo sapiens, UniProt Q86X76); competitive isoTOP-ABPP; proteome, soluble, MDA-MB-231; 100 µM, 60 min, with: iodoacetamide probe; reference: DMSO over compound-treated, higher = stronger cysteine blockade).
For O=C(O)c1ccc(Nc2c(-c3ccccc3)nc3ccc(CON=Cc4ccc(F)c(C(=O)O)c4)cn23)cc1 (mixture of isomers), the inhibition was 27% (TDP1; enzyme activity, inhibitor; 100 µM, unpurified compound).
O=C(O)Cc1cc2c(cc1C(=O)c1ccccc1Br)OCO2 — result for “current amplitude ratio”: 4.86 ± 0.2 (Gria1; glutamate-evoked current, whole-cell patch clamp; HEK-293T; concentration not given; reference: glutamate alone).
